Assay results collected from several papers.
Lines come from different studies, so protocols differ. ± gives the spread as reported.

SMILES	test	test system	setting	Cmax
N#C[C@]1(CO)O[C@@H](n2cnc3c(=O)[nH]c(N)nc32)C[C@@H]1O	–	male Sprague-Dawley rat, plasma	oral, 1 mg/kg, added: entecavir 1 mg/kg	60.1 ± 16.1 ng/mL
CS(=O)(=O)c1ccc(-c2cnc(N)c(-c3ccc(C(F)(F)F)nc3)c2)cc1	–	pregnant female Sprague-Dawley rat, plasma	oral, 10 mg/kg/day, gestation day 6	2160 ng/mL
CCN(CC)Cc1cc(Nc2ccnc3cc(Cl)ccc23)ccc1O	–	rat, Wistar, male, plasma	oral, 60 mg/kg, added: myricetin 5 mg/kg iv	1040 ± 122 ng/mL
CCC[C@@]1(CCc2ccccc2)CC(O)=C([C@H](CC)c2cccc(NS(=O)(=O)c3ccc(C(F)(F)F)cn3)c2)C(=O)O1	–	Sprague Dawley rat, male, plasma	oral, 5 mg/kg, lipid-free formulation	1920 ± 98 ng/mL
CC(C)=CCC[C@](C)(O[C@@H]1O[C@H](CO)[C@@H](O)[C@H](O)[C@H]1O)[C@H]1CC[C@]2(C)[C@@H]1[C@H](O)C[C@@H]1[C@@]3(C)CC[C@H](O)C(C)(C)[C@@H]3[C@@H](O[C@@H]3O[C@H](CO)[C@@H](O)[C@H](O)[C@H]3O)C[C@]12C	–	Sprague Dawley rat, male, plasma	oral, 25 mg/kg, in frozen ginseng extract	500 ± 120 ng/mL
CCN1CCN(c2ccc(Nc3cc(N(C)C(=O)Nc4c(Cl)c(OC)cc(OC)c4Cl)ncn3)cc2)CC1	LC-MS/MS	juvenile female Crl:WI(Han) rats, plasma	oral gavage, 0.3 mg/kg/day, postnatal day 17	18.1 ng/mL
O=C(NC[C@H]1CN(c2ccc(N3CCOCC3=O)cc2)C(=O)O1)c1ccc(Cl)s1	–	Sprague-Dawley rat, male, plasma	oral, 10 mg/kg	310 ± 85.8 ng/mL
Cc1cc(Nc2cc3ncccc3c(N[C@@H]3C[C@H]4CC[C@@H](C3)N4CCC#N)n2)n[nH]1	–	Sprague-Dawley rat, male, plasma	oral, 30 mg/kg/day, last day of 4 weeks	2.88 ng/mL
CC(C)=CCC[C@](C)(O[C@@H]1O[C@H](CO)[C@@H](O)[C@H](O)[C@H]1O)[C@H]1CC[C@]2(C)[C@@H]1[C@H](O)C[C@@H]1[C@@]3(C)CC[C@H](O[C@@H]4O[C@H](CO)[C@@H](O)[C@H](O)[C@H]4O[C@@H]4O[C@H](CO)[C@@H](O)[C@H](O)[C@H]4O)C(C)(C)[C@@H]3CC[C@]12C	–	Sprague-Dawley rat, plasma	oral, 2000 mg/kg ginseng extract, diet with NUTRIOSE 10% for 2 weeks	1220 ± 796 ng/mL
CCOc1cc([C@@H](CS(C)(=O)=O)N2C(=O)c3cccc(NC(C)=O)c3C2=O)ccc1O[C@@H]1O[C@H](C(=O)O)[C@@H](O)[C@H](O)[C@H]1O	–	moderate renal impairment patients, plasma	oral, 30 mg of apremilast	192 ng/mL
O=C(O)/C=C/c1ccc(O)c(O)c1	UPLC-MS/MS	Wistar rat, microcirculation dysfunction model, plasma	oral, 100 mg/kg Salvia miltiorrhiza stem-leaf extract FT	4.9 ± 0.19 ng/mL
O=C(O)C[C@H](O)C[C@H](O)/C=C/c1c(C2CC2)nc2ccccc2c1-c1ccc(F)cc1	–	male Sprague Dawley rat, NASH, plasma	oral, 2.5 mg/kg, geometric mean, added: silymarin 500 mg/kg oral	4200 nM
CC(C)=CCC[C@](C)(O[C@@H]1O[C@H](CO)[C@@H](O)[C@H](O)[C@H]1O)[C@H]1CC[C@]2(C)[C@@H]1[C@H](O)C[C@@H]1[C@@]3(C)CC[C@H](O[C@@H]4O[C@H](CO)[C@@H](O)[C@H](O)[C@H]4O)C(C)(C)[C@@H]3CC[C@]12C	–	Sprague-Dawley rat, plasma	oral, 100 mg/kg of parent ginsenoside, control group, no prebiotic	20.3 ± 6.35 ng/mL
Cc1nc2cccc(OCC(C)(C)C(=O)NC(C)C)c2c(N)c1C(=O)O	–	female Sprague-Dawley rat, plasma	dietary, 100 mg/kg/day, day 90	92 ng/mL
C=CC(=O)N1CCC[C@@H](n2nc(-c3ccc(Oc4ccccc4)cc3)c3c(N)ncnc32)C1	–	Sprague-Dawley rat, male, plasma	oral, 55 mg/kg	413 ng/mL
CCc1cc2c(cc1N1CCC(N3CCOCC3)CC1)C(C)(C)c1[nH]c3cc(C#N)ccc3c1C2=O	–	healthy subjects, matched to moderate impairment, plasma, total	oral, 300 mg single, fed	94.3 ng/mL
CC(C)=CCC[C@](C)(O[C@@H]1O[C@H](CO)[C@@H](O)[C@H](O)[C@H]1O)[C@H]1CC[C@]2(C)[C@@H]1[C@H](O)C[C@@H]1[C@@]3(C)CC[C@H](O)C(C)(C)[C@@H]3[C@@H](O[C@@H]3O[C@H](CO)[C@@H](O)[C@H](O)[C@H]3O[C@@H]3O[C@@H](C)[C@H](O)[C@@H](O)[C@H]3O)C[C@]12C	–	Sprague Dawley rat, male, plasma	oral, 45 mg/kg, in frozen ginseng extract	500 ± 120 ng/mL
C=CC(=O)Nc1cc(Nc2nccc(-c3cn(C)c4ccccc34)n2)c(OC)cc1N(C)CCN(C)C	–	Sprague-Dawley rat, male, plasma	oral, 10 mg/kg	51.5 ± 10.7 ng/mL
CCCC[C@H](NC(C)=O)C(=O)N[C@H]1CCC(=O)NC[C@@H](C(=O)N[C@@H](Cc2c[nH]c3ccccc23)C(N)=O)NC(=O)[C@H](CCCNC(=N)N)NC(=O)[C@@H](Cc2ccccc2)NC(=O)[C@H](Cc2c[nH]cn2)NC1=O	–	CD Sprague Dawley rat, male, plasma	subcutaneous, 25.0 mg/kg daily, day 14	1140 ng/mL
Cc1cc(-c2cc(OC(=O)c3ccccc3)ccc2Cl)cc2nnc(Nc3ccc(OCCN4CCCC4)cc3)nc12	–	Long Evans rat, plasma	topical, 1%	not detected
Cc1nc(Nc2ncc(C(=O)Nc3c(C)cccc3Cl)s2)cc(N2CCN(CCO)CC2)n1	–	Sprague-Dawley rat, female, plasma	intraperitoneal, 5 mg/kg, added: rosiglitazone co-dosed	440 ± 170 ng/mL
O=C(O)Cc1ccccc1Nc1c(Cl)cccc1Cl	–	rat, plasma	oral, 10 mg/kg, added: sesamin 10 mg/kg	3500 ± 2300 ng/mL
O=C(/C=C/c1ccc(O)c(O)c1/C=C/c1ccc(O)c(O)c1)O[C@H](Cc1ccc(O)c(O)c1)C(=O)O	UPLC-MS/MS	Wistar rat, microcirculation dysfunction model, plasma	oral, 100 mg/kg Salvia miltiorrhiza stem-leaf extract FT	10.5 ± 3.59 ng/mL
Cc1cc(C(=O)NC(C)(C)COc2cccc3c2C(N)=NS(=O)(=O)N3)cc(C)n1	–	Sprague-Dawley rat, both sexes, plasma	oral, diet, 70 mg/kg/day, day 91, combined sexes mean	77.6 nM
O=C(/C=C/c1ccc(O)c(O)c1)O[C@H](Cc1ccc(O)c(O)c1)C(=O)O	UPLC-MS/MS	Wistar rat, microcirculation dysfunction model, plasma	oral, 100 mg/kg Salvia miltiorrhiza stem-leaf extract FT	16.6 ± 5.77 ng/mL
C=CC(N)CCC(=O)O (centres unmarked)	–	male Sprague-Dawley rat, plasma	oral, 1.0 mg/kg, formulation 4, added: proline and tryptophan 100 mg/kg each	1080 ± 75 ng/mL

Repeated from above:
SMILES	test	test system	setting	Cmax
O=C(NC[C@H]1CN(c2ccc(N3CCOCC3=O)cc2)C(=O)O1)c1ccc(Cl)s1	–	Sprague-Dawley rat, male, plasma	oral, 10 mg/kg	310 ± 85.8 ng/mL
O=C(O)/C=C/c1ccc(O)c(O)c1	UPLC-MS/MS	Wistar rat, microcirculation dysfunction model, plasma	oral, 100 mg/kg Salvia miltiorrhiza stem-leaf extract FT	4.9 ± 0.19 ng/mL
C=CC(=O)Nc1cc(Nc2nccc(-c3cn(C)c4ccccc34)n2)c(OC)cc1N(C)CCN(C)C	–	Sprague-Dawley rat, male, plasma	oral, 10 mg/kg	51.5 ± 10.7 ng/mL
